Published values pooled from the literature.
Protocols differ between the studies behind these lines. Values joined by “and” are separate records of one study, mostly repeats; a detail may differ. ± marks the error that the study gave.

SMILES	cell line	test	setting	scale	quantity	result
COc1ccc2c(c1)CN(C(=O)CCN1CCC(Cc3ccccc3)CC1)CC[S@@+]2[O-]	hiPSC-derived cardiomyocytes	–	concentration not given	–	APD90 prolongation	~30%
NC(=O)NOCCCCCCCCCCCCCC[P+](c1ccccc1)(c1ccccc1)c1ccccc1.O=C([O-])C(F)(F)F	HCT-116	cell growth, live-cell imaging	0.3 µM, control at 90% confluence	–	cell confluence	83.1%
Cc1nc(Nc2ncc(C(=O)Nc3c(C)cccc3Cl)s2)cc(N2CCN(CCO)CC2)n1	HPAC	cell viability, MTT	mutant KRAS primary	–	IC50	3.14 µM
Cc1cccc(-c2noc(CCC(=O)Nc3ccccc3)n2)c1	BV-2	refers to: caspase-8	30 nM, added: high glucose	reference: high glucose	protein level	decreased
CCN(CC)CCCC(C)Nc1ccnc2cc(Cl)ccc12 (centres unmarked)	hiPSC-derived cardiomyocytes	perforated patch voltage clamp	5 µM, depolarization to +10 mV	–	peak L-type calcium current	58.9 pA and 112 pA and 3.1 pA and 29.3 pA and 293 pA
Cc1n[nH]c2nc(-c3ccc(Cl)cc3)c3c(NC(=O)c4ccccc4)nnc-3n12	SF-295	SRB	10 µM, NCI60 single-dose screen	reference: untreated	cell growth	102%
CC(C)NCC(O)c1ccc(O)c(O)c1 (centres unmarked)	mouse ventricular cardiomyocytes	–	dose not given, 0.139 s	–	sarcomere length	1.59 µm
COc1ccc(-n2nc(C(C)=O)s/c2=N\N=C(/C)c2ccc(NC(=O)c3ccc(C)cc3)cc2)cc1	HepG2	–	5 µM	–	toxicity	95.8%
CCOC(=O)Nc1ccc(NCc2ccc(F)cc2)nc1N	BV-2	–	50 µM, 1.5 h	–	IP1 accumulation increase	6%
COc1nc(NCc2cn(-c3ccc(C(=O)Nc4ccccc4)cc3)nn2)nc(OC)n1	HCT-116	annexin V-FITC/PI	IC50, 24 h	–	apoptotic cells Total	30.1%
Nc1cccc2c1C(=O)N(C1CCC(=O)NC1=O)C2=O (centres unmarked)	MM1.S	XTT	0.8 µM	reference: untreated	viability	33%
NC(=O)NO	HCT-116	cell growth, live-cell imaging	1000 µM, control at 90% confluence	–	cell confluence	5.4 ± 1.02%
Cn1cc(-c2ccc(-c3cncc(Cl)c3N3CCC4(CCNC4=O)CC3)cc2)cn1	COLO 205	gene expression, microarray, refers to: BHLHE41 mRNA	concentration not given, 2 h	reference: untreated cells	log2 fold change	5.36
CCCCc1oc2ccc(NS(C)(=O)=O)cc2c1C(=O)c1ccc(OCCCN(CCCC)CCCC)cc1	human embryonic stem cell aggregates	mRNA level, microarray, refers to: RIPPLY1	0.5 µM, 120 h	reference: untreated, down-regulated	fold change	2.3 fold
CSc1cccc(Nc2ncc3cc(-c4c(Cl)cccc4Cl)c(=O)n(C)c3n2)c1	hiPSC-derived cardiomyocytes (iCell)	impedance	concentration not given, 24 h	reference: control	cell index	94.6%
CCn1cc(-c2cc(Cn3ccoc3=N)cc3c2CCN([C@@H](C)c2cc(OC)ccn2)C3=O)c(C(F)(F)F)n1	BT-474	cell growth, inhibitor	120 h	–	EC50	8.81 µM
C=Cc1c(C)c2cc3nc(c(CC(=O)O)c4[nH]c(cc5nc(cc1[nH]2)C(C)=C5CC)c(C)c4C(=O)O)[C@@H](CCC(=O)O)[C@@H]3C	4T1	wound healing	concentration not given, no laser irradiation	–	cell motility	51.7% and 47.1% and 38.1%
COc1cnc2cccc(N3CCc4c(cc(Cn5ccnc5C)cc4-c4cn(C)nc4C(F)(F)F)C3=O)c2c1	HEC-1-A	cell growth, inhibitor	120 h	–	EC50	> 30 µM
Nc1ncnc2c1ncn2[C@@H]1O[C@H](CO)[C@@H](O)[C@H]1O	activated human T cells	–	100 nM	higher = more IFNγ	IFNγ production	355 a.u. and 382 a.u. and 472 a.u.
OCc1ccc(-c2nn(CCc3ccccc3)c3ccccc23)o1	RBE	cell viability, CellTiter-Glo	–	–	IC50	5.82 µM
Cn1cc(Nc2nccc(-c3ccc4c(c3)CN(C3COC3)CC[C@H]4NC(=O)c3cn(C(C)(C)C)nn3)n2)cn1	mouse splenic B cells	refers to: JAK/Stat signalling	30 mg/kg, IgD-activated in vivo	reference: vehicle, direction not given	pathway activation z-score	1.94

SMILES	cell line	test	setting	scale	quantity	result
CCN(Cc1cccc(Cl)c1)c1ccc(CO)c(Cl)c1	RBE	cell viability, CellTiter-Glo	–	–	IC50	0.23 µM
CC/C(=N\NC(=O)NCc1cccc(O)c1)c1ccc(O)c(C)c1O	SK-OV-3	gene expression, microarray, refers to: EDN1	10 µM, 24 h	reference: DMSO	log ratio	4.61
O=C1CC[C@H](N2Cc3cc(N4CCN(CC5CCN(c6ccc([C@@H]7c8ccc(O)cc8CC[C@@H]7c7ccccc7)cc6)CC5)CC4)ccc3C2=O)C(=O)N1	T47D expressing ESR1 Y537S	cell growth, CellTiter-Glo	120 h	–	GI50	0.008 µM
CC(=O)O[C@H]1C(=O)[C@@]2(C)[C@H]([C@H](OC(=O)c3ccccc3)[C@]3(O)C[C@H](OC(=O)[C@H](O)[C@@H](NC(=O)c4ccccc4)c4ccccc4)C(C)=C1C3(C)C)[C@]1(OC(C)=O)CO[C@@H]1C[C@@H]2O	COS-7 and PC-3	–	–	reference: IC50 COS-7 over PC-3	selectivity index	41.3
Cc1cccc(-c2[nH]c(CNc3ccccc3F)nc2-c2ccc3ncnn3c2)n1	MM1.S pomalidomide-resistant	XTT	2 µM	–	viability	50% and 41% and 30%
O=C(/C=C/C=C/C=C/C1CCCCC1)NC1=C[C@@](O)(/C=C/C=C/C=C/C(=O)NC2=C(O)CCC2=O)[C@@H]2O[C@@H]2C1=O	Panc1005	cell growth, CellTiter-Glo	78 h	–	GI50	9.22 µM
OCc1ccc(-c2nn(Cc3ccccc3)c3cccc(Cl)c23)o1	RBE	cell viability, CellTiter-Glo	–	–	IC50	5.99 µM
NC(=O)NOCCCCCCCCCCCCCCCCCCCC[P+](c1ccccc1)(c1ccccc1)c1ccccc1.O=C([O-])C(F)(F)F	HCT-116	cell growth, live-cell imaging	0.5 µM, control at 90% confluence	–	cell confluence	7.67 ± 0.98%
CCn1c2ccc(CNCCOCCOCCOCCC(=O)NCCOc3ccc(CCc4nc5cc(-c6c(C)noc6C)ccc5n4CCN4CCOCC4)cc3F)cc2c2ccc(-c3cc(C)cs3)cc21	NCI-H1299 expressing p53 Y220C	RT-qPCR	3 µM, 24 h	reference: DMSO	BAX mRNA level	no effect
Cn1c(Nc2nc3ccc(C(F)(F)F)cc3s2)nc2cc(C(=O)NCCOCCO)ccc21	SH-SY5Y	RNA-seq, refers to: TGFB1I1 mRNA	5 µM, 5 h	reference: untreated cells	fold change	2.12
COc1cc2c(Oc3ccc(NC(=O)C4(C(=O)Nc5ccc(F)cc5)CC4)cc3F)ccnc2cc1OCCCN1CCOCC1	hiPSC-derived cardiomyocytes (iCell)	impedance (xCELLigence Cardio)	concentration not given, 2 h	reference: control	beat amplitude	106%
CCn1cc(-c2cc(Cn3ccnc3)cc3c2CCN([C@H](c2cc(OC)ccn2)C2CC2)C3=O)c(C(F)(F)F)n1	SU-DHL-4	cell growth, inhibitor	120 h	–	EC50	4.61 µM
C[C@H](Nc1ccc2c(c1)OCCn1cc(N3C(=O)OC[C@H]3C(F)F)nc1-2)C(N)=O	ESS-1	cell growth, CellTiter-Glo	120 h	–	Hill coefficient GR curve	0.326
COc1ccc2c(N(C)c3ccc(/C(C)=N/OCCN)cc3)c3c(Cl)coc3nc2c1	VCaP-AI	trypan blue exclusion	1 µM, 72 h, SR conditions	–	growth inhibition	80 to 90% and 70 to 80%
COc1ccc(NC(=S)N/N=C/c2cccc3cc4ccccc4nc23)cc1	HeLa	TMRE flow cytometry	IC50, 48 h, unit not given	reference: DMSO control	mitochondrial membrane potential	1.8 ± 0.56
CCCCN1CCN(c2ccc3[nH]c(-c4ccc5[nH]c(-c6cc(OC)c(OC)c(OC)c6)nc5c4)nc3c2)CC1	SF-295	SRB	10 µM, 48 h	–	growth percent	58.6%
CCN(Cc1cccc(F)c1F)c1ccc(CO)c(Cl)c1	RBE	cell viability, CellTiter-Glo	–	–	IC50	0.13 µM
O=c1[nH]nc(OCCCc2ccc(Cl)cc2)c(NCc2cccnc2)c1Br	HEK293T	RNA-seq, refers to: MTHFR mRNA	10 µM, 6 h	reference: vehicle	log2 fold change	0.0726
Cc1cnc(NC2CCOCC2)nc1-n1cnc(C(=O)NC(CN)c2cc(F)cc(Cl)c2)c1 (centres unmarked)	Rec1	flow cytometry	1 µM, 48 h	–	sub-G0 cells	1.1%
CC(O)c1ccc(-c2nn(Cc3ccccc3)c3ccccc23)o1 (centres unmarked)	RBE	cell viability, CellTiter-Glo	–	–	IC50	6.9 µM

A few entries again:
SMILES	cell line	test	setting	scale	quantity	result
OCc1ccc(-c2nn(Cc3ccccc3)c3cccc(Cl)c23)o1	RBE	cell viability, CellTiter-Glo	–	–	IC50	5.99 µM
NC(=O)NOCCCCCCCCCCCCCCCCCCCC[P+](c1ccccc1)(c1ccccc1)c1ccccc1.O=C([O-])C(F)(F)F	HCT-116	cell growth, live-cell imaging	0.5 µM, control at 90% confluence	–	cell confluence	7.67 ± 0.98%
CCn1c2ccc(CNCCOCCOCCOCCC(=O)NCCOc3ccc(CCc4nc5cc(-c6c(C)noc6C)ccc5n4CCN4CCOCC4)cc3F)cc2c2ccc(-c3cc(C)cs3)cc21	NCI-H1299 expressing p53 Y220C	RT-qPCR	3 µM, 24 h	reference: DMSO	BAX mRNA level	no effect
Cn1c(Nc2nc3ccc(C(F)(F)F)cc3s2)nc2cc(C(=O)NCCOCCO)ccc21	SH-SY5Y	RNA-seq, refers to: TGFB1I1 mRNA	5 µM, 5 h	reference: untreated cells	fold change	2.12
COc1cc2c(Oc3ccc(NC(=O)C4(C(=O)Nc5ccc(F)cc5)CC4)cc3F)ccnc2cc1OCCCN1CCOCC1	hiPSC-derived cardiomyocytes (iCell)	impedance (xCELLigence Cardio)	concentration not given, 2 h	reference: control	beat amplitude	106%
CCn1cc(-c2cc(Cn3ccnc3)cc3c2CCN([C@H](c2cc(OC)ccn2)C2CC2)C3=O)c(C(F)(F)F)n1	SU-DHL-4	cell growth, inhibitor	120 h	–	EC50	4.61 µM
